Assay results from different studies.
Each numbered part is a random draw from the data of one study; scales do not carry over between parts. In brackets after ≈: the same amount, converted by molar mass.
UniProt Q9NYA1, sequence (whole entry, looked up): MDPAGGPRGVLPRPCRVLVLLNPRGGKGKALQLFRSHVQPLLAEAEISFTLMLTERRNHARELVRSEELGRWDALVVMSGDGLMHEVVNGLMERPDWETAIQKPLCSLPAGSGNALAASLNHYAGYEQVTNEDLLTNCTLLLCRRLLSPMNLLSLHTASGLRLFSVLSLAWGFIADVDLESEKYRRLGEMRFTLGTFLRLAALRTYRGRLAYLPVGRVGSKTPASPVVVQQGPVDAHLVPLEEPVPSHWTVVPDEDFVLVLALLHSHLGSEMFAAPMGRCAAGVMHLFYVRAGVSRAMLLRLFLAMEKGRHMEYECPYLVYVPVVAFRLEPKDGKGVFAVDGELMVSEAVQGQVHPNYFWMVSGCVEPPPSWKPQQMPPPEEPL
UniProt P42336, sequence (whole entry, looked up): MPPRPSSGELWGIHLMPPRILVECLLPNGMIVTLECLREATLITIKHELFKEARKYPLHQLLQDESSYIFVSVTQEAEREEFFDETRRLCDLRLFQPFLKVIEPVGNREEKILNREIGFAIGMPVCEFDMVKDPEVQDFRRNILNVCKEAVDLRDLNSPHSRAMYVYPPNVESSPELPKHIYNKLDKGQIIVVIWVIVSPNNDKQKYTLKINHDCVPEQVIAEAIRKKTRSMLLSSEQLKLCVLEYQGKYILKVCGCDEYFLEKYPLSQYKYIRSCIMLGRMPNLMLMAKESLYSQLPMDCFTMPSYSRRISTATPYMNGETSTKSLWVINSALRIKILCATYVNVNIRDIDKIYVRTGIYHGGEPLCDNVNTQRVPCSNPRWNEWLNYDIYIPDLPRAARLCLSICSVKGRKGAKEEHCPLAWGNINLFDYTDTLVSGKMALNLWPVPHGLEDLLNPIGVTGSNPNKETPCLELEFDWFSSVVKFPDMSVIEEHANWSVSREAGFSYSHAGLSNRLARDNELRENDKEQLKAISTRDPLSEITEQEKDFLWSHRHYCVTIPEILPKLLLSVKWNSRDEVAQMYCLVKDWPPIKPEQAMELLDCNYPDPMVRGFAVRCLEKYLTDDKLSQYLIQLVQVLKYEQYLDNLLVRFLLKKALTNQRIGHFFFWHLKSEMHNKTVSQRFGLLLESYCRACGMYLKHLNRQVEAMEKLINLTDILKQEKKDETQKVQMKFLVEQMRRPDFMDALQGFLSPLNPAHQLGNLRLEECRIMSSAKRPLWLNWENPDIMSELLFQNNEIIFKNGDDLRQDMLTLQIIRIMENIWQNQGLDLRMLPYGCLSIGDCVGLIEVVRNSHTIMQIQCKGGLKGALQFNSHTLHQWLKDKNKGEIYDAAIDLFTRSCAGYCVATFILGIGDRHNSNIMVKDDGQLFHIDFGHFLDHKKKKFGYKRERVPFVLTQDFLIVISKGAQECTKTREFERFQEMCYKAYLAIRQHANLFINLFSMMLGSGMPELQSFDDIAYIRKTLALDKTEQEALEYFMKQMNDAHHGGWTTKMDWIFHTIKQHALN
UniProt P54764, sequence (whole entry, looked up): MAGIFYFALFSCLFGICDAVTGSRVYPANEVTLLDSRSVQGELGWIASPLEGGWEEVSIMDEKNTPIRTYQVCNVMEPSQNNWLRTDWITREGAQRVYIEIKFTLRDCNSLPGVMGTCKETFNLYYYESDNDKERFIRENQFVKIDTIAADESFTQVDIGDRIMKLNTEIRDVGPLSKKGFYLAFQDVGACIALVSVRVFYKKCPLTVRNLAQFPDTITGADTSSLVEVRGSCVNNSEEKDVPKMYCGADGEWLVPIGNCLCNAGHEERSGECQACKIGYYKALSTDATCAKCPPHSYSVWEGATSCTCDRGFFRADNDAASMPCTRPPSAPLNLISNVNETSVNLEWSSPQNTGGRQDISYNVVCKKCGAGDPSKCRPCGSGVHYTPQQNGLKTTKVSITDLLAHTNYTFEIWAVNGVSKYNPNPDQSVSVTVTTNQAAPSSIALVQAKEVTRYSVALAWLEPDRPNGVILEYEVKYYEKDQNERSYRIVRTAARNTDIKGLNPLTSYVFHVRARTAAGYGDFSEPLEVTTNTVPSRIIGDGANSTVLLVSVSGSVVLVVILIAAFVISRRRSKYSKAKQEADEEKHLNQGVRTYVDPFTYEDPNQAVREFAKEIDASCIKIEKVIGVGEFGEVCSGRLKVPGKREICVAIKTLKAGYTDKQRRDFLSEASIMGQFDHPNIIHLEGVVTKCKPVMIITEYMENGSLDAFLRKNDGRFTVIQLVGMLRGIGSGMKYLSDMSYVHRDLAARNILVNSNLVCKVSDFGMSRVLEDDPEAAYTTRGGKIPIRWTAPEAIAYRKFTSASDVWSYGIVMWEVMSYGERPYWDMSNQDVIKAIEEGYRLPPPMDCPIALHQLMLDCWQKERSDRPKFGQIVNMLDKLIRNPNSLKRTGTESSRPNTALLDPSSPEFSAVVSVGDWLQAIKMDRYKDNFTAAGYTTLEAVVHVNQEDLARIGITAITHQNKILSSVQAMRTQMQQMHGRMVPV
UniProt P42681, sequence (whole entry, looked up): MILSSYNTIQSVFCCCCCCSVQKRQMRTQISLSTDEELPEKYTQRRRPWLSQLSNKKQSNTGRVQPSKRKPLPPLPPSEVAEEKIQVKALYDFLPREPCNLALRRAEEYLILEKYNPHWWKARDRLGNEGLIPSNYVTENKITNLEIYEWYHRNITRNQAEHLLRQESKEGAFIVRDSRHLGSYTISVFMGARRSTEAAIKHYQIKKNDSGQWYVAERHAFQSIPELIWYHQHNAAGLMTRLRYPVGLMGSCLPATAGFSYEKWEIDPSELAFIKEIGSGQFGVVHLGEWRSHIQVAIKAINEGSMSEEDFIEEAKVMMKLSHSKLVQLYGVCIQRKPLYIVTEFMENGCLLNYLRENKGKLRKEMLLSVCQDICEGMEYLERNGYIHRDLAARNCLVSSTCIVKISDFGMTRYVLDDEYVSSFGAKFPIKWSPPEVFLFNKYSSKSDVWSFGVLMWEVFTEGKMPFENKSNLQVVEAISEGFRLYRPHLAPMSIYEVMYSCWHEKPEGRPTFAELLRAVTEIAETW

Sample 1
Structure (SMILES): Cc1c(NC(=O)c2cccn(-c3ccc(F)cc3)c2=O)ccc(Oc2ccnc(NC(=O)C3CC3)c2)c1C
Target: Receptor-interacting serine/threonine-protein kinase 3 (RIPK3, Homo sapiens, UniProt Q9Y572)
UniProt Q9Y572, sequence (whole entry, looked up): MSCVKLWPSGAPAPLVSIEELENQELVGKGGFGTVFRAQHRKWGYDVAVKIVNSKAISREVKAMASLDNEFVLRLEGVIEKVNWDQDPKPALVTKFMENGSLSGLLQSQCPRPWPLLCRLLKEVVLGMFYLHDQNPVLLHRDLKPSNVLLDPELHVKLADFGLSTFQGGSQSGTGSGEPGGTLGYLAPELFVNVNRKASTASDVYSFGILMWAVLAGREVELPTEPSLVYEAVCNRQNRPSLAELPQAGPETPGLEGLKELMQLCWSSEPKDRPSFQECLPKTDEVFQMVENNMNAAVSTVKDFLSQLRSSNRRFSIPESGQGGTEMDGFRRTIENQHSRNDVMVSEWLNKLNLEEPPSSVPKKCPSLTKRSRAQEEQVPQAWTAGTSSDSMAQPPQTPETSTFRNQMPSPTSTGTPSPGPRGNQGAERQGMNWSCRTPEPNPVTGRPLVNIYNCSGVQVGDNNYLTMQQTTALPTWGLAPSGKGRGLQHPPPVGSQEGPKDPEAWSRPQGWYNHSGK
Effect on: kinase activity
Action: inhibitor
Method: ADP-Glo
Time: 1 h
setting | inhibition
125 nM | 92.8%
31.25 nM | 43.3%
250 nM | 96.8%

Sample 2
SMILES: C[C@@H]1CN(c2ccc(-c3cc(C(=O)NCCOCCOCCOCCOCCNC(=O)Cn4cc(-c5[nH]cc(C(=O)N[C@@H](CC(N)=O)c6ccc(F)c(Cl)c6)c5-c5ccc(Cl)cc5F)cn4)ccc3F)cc2NC(=O)c2c[nH]c(=O)cc2C(F)(F)F)C[C@H](C)N1C
Effect on: thermal unfolding
Method: differential scanning fluorimetry
Tested at: 5.5 µM
Reading: higher = more unfolded
DCAF1: DDB1- and CUL4-associated factor 1 (DCAF1, Homo sapiens, UniProt Q9Y4B6)
UniProt Q9Y4B6, sequence (whole entry, looked up): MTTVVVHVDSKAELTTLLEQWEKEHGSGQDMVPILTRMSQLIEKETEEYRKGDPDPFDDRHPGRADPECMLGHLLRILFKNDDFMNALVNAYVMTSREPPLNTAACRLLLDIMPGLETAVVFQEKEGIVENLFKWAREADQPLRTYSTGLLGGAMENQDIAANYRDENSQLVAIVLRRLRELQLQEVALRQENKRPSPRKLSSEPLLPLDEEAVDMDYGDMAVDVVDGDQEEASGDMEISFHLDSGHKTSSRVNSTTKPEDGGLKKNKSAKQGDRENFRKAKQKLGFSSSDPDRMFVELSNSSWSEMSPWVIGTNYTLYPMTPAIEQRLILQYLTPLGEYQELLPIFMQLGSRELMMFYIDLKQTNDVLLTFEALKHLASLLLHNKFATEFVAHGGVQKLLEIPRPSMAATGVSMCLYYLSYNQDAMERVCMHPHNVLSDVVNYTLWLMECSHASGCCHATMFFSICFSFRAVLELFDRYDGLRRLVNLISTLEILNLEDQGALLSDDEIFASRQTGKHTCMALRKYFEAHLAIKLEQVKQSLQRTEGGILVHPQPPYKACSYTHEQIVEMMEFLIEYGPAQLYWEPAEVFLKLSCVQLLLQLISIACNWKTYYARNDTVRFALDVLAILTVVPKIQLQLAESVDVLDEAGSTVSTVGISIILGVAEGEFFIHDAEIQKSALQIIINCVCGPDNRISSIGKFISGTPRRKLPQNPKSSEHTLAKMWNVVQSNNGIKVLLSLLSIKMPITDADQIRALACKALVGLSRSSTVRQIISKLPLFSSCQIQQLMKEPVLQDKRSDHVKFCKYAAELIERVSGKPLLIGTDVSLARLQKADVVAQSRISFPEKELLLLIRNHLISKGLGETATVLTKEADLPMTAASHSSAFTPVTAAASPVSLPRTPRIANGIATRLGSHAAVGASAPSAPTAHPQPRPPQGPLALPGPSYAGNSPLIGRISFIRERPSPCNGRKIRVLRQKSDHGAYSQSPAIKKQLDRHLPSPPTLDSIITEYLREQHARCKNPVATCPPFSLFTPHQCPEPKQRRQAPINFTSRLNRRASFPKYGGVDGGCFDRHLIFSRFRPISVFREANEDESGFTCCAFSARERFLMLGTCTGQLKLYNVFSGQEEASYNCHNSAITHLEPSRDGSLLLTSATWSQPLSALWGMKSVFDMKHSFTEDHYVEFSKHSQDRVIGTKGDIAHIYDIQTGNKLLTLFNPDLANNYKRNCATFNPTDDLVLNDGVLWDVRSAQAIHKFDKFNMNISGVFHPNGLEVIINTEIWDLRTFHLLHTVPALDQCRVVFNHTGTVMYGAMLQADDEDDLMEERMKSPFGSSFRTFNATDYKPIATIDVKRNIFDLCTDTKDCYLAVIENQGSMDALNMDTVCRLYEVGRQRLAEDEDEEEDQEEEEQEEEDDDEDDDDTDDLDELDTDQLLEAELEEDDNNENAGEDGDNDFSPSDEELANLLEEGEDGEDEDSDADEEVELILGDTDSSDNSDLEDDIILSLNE
WDR5: WD repeat-containing protein 5 (WDR5, Homo sapiens, UniProt P61964)
target | setting | SYPRO Orange fluorescence
DCAF1 | 46.6 °C | 13000 a.u.
WDR5 | 27.2 °C | 14800 a.u.
WDR5 | 74.01 °C | 9550 a.u.
WDR5 | 40.8 °C | 14200 a.u.
DCAF1 | 74.81 °C | 49500 a.u.
DCAF1 | 44.8 °C | 12100 a.u.
WDR5 | 55.41 °C | 13300 a.u.

Sample 3
Structure (SMILES): CNc1ncc2cc(-c3cc(OC)cc(OC)c3Cl)c(=O)n(CCc3ccc(NC(=O)C(C#N)=CC(C)(C)N4CCOCC4)cc3)c2n1
Effect on: kinase activity
target | setting | inhibition [%]
Ephrin type-A receptor 4 (EPHA4, Homo sapiens, UniProt P54764) | 0.1 µM | -3
Phosphatidylinositol 4,5-bisphosphate 3-kinase catalytic subunit alpha isoform (PIK3CA, Homo sapiens, UniProt P42336) | 0.1 µM | -5
Sphingosine kinase 1 (SPHK1, Homo sapiens, UniProt Q9NYA1) | 1 µM | 2
MAP/microtubule affinity-regulating kinase 4 (MARK4, Homo sapiens, UniProt Q96L34) | 0.1 µM | 0
Serine/threonine-protein kinase N2 (PKN2, Homo sapiens, UniProt Q16513) | 0.1 µM | 0
Mitogen-activated protein kinase 12 (MAPK12, Homo sapiens, UniProt P53778) | 1 µM | 4
Serine/threonine-protein kinase PLK2 (PLK2, Homo sapiens, UniProt Q9NYY3) | 0.1 µM | -8
Tyrosine-protein kinase TXK (TXK, Homo sapiens, UniProt P42681) | 0.1 µM | 0

Other studies, line by line
SMILES | test system | setting | endpoint | value
COCCOCCOC(=O)[C@H](CCC(=O)C=[N+]=[N-])NC(=O)[C@H](Cc1c[nH]c2ccccc12)NC(C)=O | CES1-/- mouse GI tissue homogenate | concentration not given, 60 min | DON release | 12%
Cn1cc(-c2cccc(CN3CCC4(CC3)COc3c4ccc4c3CN([C@H]3CCC(=O)NC3=O)C4=O)c2)cn1 | FaSSIF | – | solubility | 305 µM (≈ 160 µg/mL)

A few entries again (sample 1):
setting | inhibition
31.25 nM | 43.3%
125 nM | 92.8%
250 nM | 96.8%
